Measured values collected from several papers.
Each numbered part is a random draw from the data of one study; scales do not carry over between parts. Changes are numbered by the printed parent chain.
Chain of UniProt Q02156 (whole entry, looked up): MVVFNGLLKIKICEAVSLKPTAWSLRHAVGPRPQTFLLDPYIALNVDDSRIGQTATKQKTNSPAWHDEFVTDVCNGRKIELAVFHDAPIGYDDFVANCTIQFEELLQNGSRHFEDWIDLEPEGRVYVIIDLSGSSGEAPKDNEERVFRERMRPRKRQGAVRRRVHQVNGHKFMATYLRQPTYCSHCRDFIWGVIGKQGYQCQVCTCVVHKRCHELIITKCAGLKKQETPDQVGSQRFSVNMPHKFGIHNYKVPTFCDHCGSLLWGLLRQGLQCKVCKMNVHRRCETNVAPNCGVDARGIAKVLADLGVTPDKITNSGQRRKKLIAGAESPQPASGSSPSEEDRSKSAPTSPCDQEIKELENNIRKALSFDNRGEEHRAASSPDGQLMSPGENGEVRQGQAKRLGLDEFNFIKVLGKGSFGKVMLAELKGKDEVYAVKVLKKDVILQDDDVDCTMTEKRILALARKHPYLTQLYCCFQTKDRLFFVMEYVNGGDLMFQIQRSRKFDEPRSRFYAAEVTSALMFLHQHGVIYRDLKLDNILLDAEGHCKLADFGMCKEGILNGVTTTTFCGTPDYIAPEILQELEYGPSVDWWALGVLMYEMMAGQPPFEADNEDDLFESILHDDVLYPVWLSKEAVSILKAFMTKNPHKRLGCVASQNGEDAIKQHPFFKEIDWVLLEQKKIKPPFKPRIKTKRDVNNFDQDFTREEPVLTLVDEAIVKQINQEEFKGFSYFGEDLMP
Chain of UniProt Q15418 (whole entry, looked up): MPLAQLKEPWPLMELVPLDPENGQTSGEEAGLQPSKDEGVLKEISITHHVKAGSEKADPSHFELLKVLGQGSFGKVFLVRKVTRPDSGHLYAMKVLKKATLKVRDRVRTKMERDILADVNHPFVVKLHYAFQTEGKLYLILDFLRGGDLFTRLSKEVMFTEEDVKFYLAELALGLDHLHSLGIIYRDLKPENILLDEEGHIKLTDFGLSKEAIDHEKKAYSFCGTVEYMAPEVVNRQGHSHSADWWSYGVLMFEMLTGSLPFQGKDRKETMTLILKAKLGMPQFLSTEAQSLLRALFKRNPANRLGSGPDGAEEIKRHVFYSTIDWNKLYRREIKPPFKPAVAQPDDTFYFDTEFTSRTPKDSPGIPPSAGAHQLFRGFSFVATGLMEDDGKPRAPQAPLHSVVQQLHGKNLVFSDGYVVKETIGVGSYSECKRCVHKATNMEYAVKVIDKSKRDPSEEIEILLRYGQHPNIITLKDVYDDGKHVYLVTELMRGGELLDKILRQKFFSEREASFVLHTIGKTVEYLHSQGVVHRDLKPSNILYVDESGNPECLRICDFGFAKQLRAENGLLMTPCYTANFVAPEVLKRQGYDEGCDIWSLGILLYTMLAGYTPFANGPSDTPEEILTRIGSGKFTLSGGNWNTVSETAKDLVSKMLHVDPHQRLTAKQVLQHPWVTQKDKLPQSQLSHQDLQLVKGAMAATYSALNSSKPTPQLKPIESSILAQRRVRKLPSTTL
Chain of UniProt Q13177 (whole entry, looked up): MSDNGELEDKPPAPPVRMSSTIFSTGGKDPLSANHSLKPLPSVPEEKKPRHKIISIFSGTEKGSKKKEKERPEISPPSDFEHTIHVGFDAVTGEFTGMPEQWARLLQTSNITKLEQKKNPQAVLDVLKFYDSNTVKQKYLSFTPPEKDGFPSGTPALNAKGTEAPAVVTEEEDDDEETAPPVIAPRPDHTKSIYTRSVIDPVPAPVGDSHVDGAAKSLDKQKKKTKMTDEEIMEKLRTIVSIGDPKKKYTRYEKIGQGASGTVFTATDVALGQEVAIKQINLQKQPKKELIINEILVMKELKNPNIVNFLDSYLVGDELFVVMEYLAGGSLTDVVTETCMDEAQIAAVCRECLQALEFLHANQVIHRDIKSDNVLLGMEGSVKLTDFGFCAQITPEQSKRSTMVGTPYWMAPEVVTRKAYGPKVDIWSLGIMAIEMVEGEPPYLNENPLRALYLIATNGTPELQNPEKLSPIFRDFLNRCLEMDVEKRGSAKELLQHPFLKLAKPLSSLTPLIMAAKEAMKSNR

Block 1
Target: Sal-like protein 4, full length isoform A (SALL4, Homo sapiens, UniProt Q9UJQ4, residues 1-1053)
Chain of UniProt Q9UJQ4 (whole entry, looked up): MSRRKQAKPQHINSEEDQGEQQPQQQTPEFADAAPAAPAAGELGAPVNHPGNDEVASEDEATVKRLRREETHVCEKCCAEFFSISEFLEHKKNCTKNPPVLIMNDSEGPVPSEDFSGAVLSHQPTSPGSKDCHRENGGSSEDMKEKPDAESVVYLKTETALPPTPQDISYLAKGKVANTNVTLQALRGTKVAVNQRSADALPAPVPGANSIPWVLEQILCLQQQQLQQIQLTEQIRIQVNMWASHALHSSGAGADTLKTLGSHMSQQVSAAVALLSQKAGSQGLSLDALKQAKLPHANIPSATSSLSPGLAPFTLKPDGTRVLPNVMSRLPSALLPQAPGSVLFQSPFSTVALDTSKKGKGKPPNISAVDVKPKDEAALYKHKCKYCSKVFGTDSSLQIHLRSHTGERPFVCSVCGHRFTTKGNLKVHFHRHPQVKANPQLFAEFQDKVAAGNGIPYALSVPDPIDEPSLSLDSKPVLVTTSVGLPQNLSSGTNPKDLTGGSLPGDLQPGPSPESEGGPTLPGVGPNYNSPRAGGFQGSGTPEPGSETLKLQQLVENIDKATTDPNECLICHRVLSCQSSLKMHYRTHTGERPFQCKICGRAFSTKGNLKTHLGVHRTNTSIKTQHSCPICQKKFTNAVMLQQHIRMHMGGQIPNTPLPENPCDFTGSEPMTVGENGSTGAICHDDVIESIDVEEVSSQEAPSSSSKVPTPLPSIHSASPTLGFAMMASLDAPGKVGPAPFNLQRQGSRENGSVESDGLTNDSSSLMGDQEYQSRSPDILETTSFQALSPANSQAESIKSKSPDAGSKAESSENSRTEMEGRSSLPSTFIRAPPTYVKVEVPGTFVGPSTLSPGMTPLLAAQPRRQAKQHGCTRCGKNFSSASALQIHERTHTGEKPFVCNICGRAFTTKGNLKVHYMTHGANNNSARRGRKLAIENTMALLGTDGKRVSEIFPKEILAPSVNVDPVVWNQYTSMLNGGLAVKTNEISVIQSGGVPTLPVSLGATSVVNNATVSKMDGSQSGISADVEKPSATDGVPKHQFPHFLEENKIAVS
Method: universal PBM
Molecule type: double-stranded DNA, one strand shown
Medium: in vitro
Tested at: 600 nM
Notes: 8-mer, flanks averaged, mean of replicates
Reading: higher = stronger binding
Sequence | E-score
CGCCCTTC | -0.361
AAGTTGTA | 0.264
GCAACCCA | -0.0943
AAAACCCG | -0.04
CGAATCAA | 0.182
CCCAATAC | 0.0861
GGGCTTAA | -0.0912
ACCGATGG | -0.107

Block 2
SMILES: COC[C@H]1OC(=O)c2coc3c2[C@@]1(C)C1=C(C3=O)[C@@H]2CCC(=O)[C@@]2(C)C[C@H]1OC(C)=O
Read-out: enzyme activity
Mode: inhibitor
Tested at: 0.5 µM
Relative to: control
target | remaining activity
PRKCE (Homo sapiens, UniProt Q02156) | 86.5%
PAK2 (Homo sapiens, UniProt Q13177) | 86.5%
RPS6KA1 (Homo sapiens, UniProt Q15418) | 91.3%

Block 3
Target: inorganic phosphate, free oxyanion
Method: microfluidic competitive inhibition
Medium: in vitro, cell-free expressed
Tested at: not given
Notes: derived from inhibition constants, unchanged parent 615000 nM
Reading: lower = stronger binding
Starting sequence: PafA, mature enzyme, eGFP fusion (Elizabethkingia meningoseptica, UniProt Q9KJX5); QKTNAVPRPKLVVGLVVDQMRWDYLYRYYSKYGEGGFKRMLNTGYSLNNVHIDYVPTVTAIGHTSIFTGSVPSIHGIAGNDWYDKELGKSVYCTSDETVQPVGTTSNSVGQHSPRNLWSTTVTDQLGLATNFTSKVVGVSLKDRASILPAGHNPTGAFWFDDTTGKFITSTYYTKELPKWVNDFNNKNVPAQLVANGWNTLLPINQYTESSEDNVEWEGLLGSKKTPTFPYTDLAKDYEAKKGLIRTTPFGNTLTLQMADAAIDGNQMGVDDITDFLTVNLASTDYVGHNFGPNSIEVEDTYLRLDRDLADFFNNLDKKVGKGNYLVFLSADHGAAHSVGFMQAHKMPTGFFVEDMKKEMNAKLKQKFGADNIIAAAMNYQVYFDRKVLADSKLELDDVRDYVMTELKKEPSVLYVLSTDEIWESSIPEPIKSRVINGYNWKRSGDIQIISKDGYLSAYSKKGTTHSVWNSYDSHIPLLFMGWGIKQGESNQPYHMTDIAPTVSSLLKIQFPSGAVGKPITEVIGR
Variant | phosphate dissociation constant
L316G | 672 µM
I485V | 675 µM
Y83V | 467 µM
F37V | 607 µM
N131V | 609 µM

Block 4
Target: CCND2, cyclin fold, Cln2 fusion (human)
Method: yeast growth competition, sequencing
Medium: yeast
Notes: weak parent motif
Relative to: not given
Reading: higher = stronger binding
Starting sequence: viral docking peptide; KGVKRKLFAEDSS
Variant | normalised enrichment score
KGVKRKLFAEHSS [D11H] | 0.169
KGVKIKLFAEDSS [R5I] | -0.0567
KGVKRKLRAEDSS [F8R] | 0.187
KGVKKKLFAEDSS [R5K] | 0.374
KGVKRKLFAECSS [D11C] | -0.0333
KDVKRKLFAEDSS [G2D] | 0.185
KGVKTKLFAEDSS [R5T] | -0.0499
KGVKRILFAEDSS [K6I] | 0.203
KGGKRKLFAEDSS [V3G] | 0.107
KGVKRKLFAEVSS [D11V] | 0.0698
KGVKRKLLAEDSS [F8L] | -0.349
KGVKRKLFAADSS [E10A] | 0.148
KFVKRKLFAEDSS [G2F] | 0.434
KGVKRKVFAEDSS [L7V] | 0.0618
KAVKRKLFAEDSS [G2A] | -0.106
KGVKRKLFACDSS [E10C] | -0.199
KGVKRKLNAEDSS [F8N] | 0.106
KGVKRVLFAEDSS [K6V] | 0.0313
KIVKRKLFAEDSS [G2I] | 0.297
KNVKRKLFAEDSS [G2N] | 0.267
KGVKRKLFAEWSS [D11W] | -0.413
KGNKRKLFAEDSS [V3N] | 0.36
KRVKRKLFAEDSS [G2R] | -0.0201
KGVKRKLAAEDSS [F8A] | 0.28
KGVKRWLFAEDSS [K6W] | -0.247

Block 5
Target: Histone acetyltransferase KAT6A, winged helix 2, GST fusion (KAT6A, Homo sapiens, UniProt Q92794, residues 85-181)
Method: protein binding microarray
Molecule type: double-stranded DNA, one strand shown
Medium: in vitro
Tested at: not given
Notes: 8-mer, flanks averaged, mean of 2 arrays, mostly near background
Relative to: not given
Reading: higher = stronger binding
Target sequence (chain): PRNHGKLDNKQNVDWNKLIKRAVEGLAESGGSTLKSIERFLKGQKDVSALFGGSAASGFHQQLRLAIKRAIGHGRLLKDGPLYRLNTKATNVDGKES
Sequence | E-score
ACCGTTGC | -0.14
CCCCACAG | -0.0216
CGTTGCGC | 0.0846
AATCTACC | -0.102
ATAAGAAA | 0.0568
AAACACAT | 0.0024
AAGCGACA | 0.136
ATATTAAG | 0.13

Block 6
Target: Phosphate system positive regulatory protein PHO4, full length, GST-tagged (PHO4, Saccharomyces cerevisiae, UniProt P07270, residues 1-312)
Method: competition protein-binding microarray
Molecule type: double-stranded DNA, one strand shown
Medium: in vitro
Tested at: 2 µM
Notes: whole 60-bp probe, lowest competitor level
With: Cbf1 competitor, 0.05 µM
Reading: higher = stronger binding
Constant ends, left off below: … GTCTTGATTCGCTTGACGCTGCTG
Target sequence (chain): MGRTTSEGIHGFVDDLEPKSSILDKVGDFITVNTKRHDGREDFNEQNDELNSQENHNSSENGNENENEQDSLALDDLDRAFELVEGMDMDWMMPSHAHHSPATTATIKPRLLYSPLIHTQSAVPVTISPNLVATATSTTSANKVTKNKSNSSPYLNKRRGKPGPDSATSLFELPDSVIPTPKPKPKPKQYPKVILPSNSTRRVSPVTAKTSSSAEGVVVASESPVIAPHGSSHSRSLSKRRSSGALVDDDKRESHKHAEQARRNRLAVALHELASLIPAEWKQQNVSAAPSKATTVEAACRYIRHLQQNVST
Sequence | fluorescence intensity [a.u.]
GATGCCGAAGATTTCCATGTGGCTGAGGAAGTTAAA | 6560
CGGGGTTAAGTTTGAATAGTGGGTGGCTTGCAGCAG | 4380
AAAGCGGTAATTTGGAGCGTGGGTGCAGATATCTAT | 8870
AACATATTGTGTTGACATGTGTAGGCAAAGACAAAA | 9350
CTTTCCCGATCTTGCCACGTGGGTGTAGCACATTTG | 16400
AAAGCGGTAATTTGTCACGTAACTTCACATATCTAT | 4460
ATGCCAATAGAGCCGCACATGTAATTACTGGTTGAC | 10100
CATACCCAACCTTGTCCCGTGGGTGAAGATATTTGT | 11800

For quick reference, copied from above (block 4):
Variant | normalised enrichment score
KGVKRKLLAEDSS [F8L] | -0.349
KGVKRKLFAADSS [E10A] | 0.148
KFVKRKLFAEDSS [G2F] | 0.434
KGVKRKVFAEDSS [L7V] | 0.0618
